{"data": "Assay results from different studies", "note": "Every numbered part comes from another study and shows a few of its results, in no order."}
{"data": "Study 1", "target": "Fragile X messenger ribonucleoprotein 1, C-terminal low-complexity region (Fmr1, Mus musculus, UniProt P35922)", "method": "RNA Bind-n-Seq", "molecule type": "RNA", "matrix": "in vitro", "concentration": "200 nM", "notes": "whole 134-nt RNA, ends assumed", "added": "150 mM LiCl", "baseline": "input library", "direction": "higher = stronger binding", "all molecules": "7-deaza-guanosine replaces G"}
{"Sequence": "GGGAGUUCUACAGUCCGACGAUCUUCUCUUCACUCCCACCAGUGCGGGUGGUCUUUGCAGUGACUAUGGAAGGCAGUGCACGGAAAGUCAUCACUGUCCGGUCAGCCCUCAUUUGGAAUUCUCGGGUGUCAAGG", "log2 enrichment": 0.126}
{"Sequence": "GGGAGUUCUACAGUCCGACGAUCUCCUGUGCUACACAUCGUAUGUACCGAAUCGGGUUUUUUUGGGAAAAAAAGGGAAAGGGAAAGUAUUAUGUUACGCCGUUCGGAUCUGCAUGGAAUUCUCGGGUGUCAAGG", "log2 enrichment": -1.78}
{"Sequence": "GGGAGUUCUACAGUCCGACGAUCUCCUCAAGUCCUGUGCUACACAUCGUAUGUACCGAAUCGGGAGGAGGAGGGAAAGUAUUAUGUUACGCCGUUCGGAUCUGCACUUCCAGCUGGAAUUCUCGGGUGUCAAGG", "log2 enrichment": -2.08}
{"Sequence": "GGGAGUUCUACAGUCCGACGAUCUUACACAAACCUGCAGGUGAAGACAGGCCAGCGGACCCUCAUCAACCCCAAGCCCUGUGGCCAGUUUUGCUGCUGUGAAGUGCUGGGCUGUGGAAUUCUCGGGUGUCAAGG", "log2 enrichment": -0.829}
{"Sequence": "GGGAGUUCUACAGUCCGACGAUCCUCAAGUCCUGUGCUACACAUCGUAUGUACCGAAUCGGCCGGGGCCGGCCGGGGAAAGUAUUAUGUUACGCCGUUCGGAUCUGCACUUCCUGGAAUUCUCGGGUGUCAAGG", "log2 enrichment": 0.0696}
{"Sequence": "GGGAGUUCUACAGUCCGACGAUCCAAGUCCUGUGCUACACAUCGUAUGUACCGAAUCGGGAAAGGGUUUUUGGGUGGGAAAGUAUUAUGUUACGCCGUUCGGAUCUGCACUUCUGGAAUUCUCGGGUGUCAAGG", "log2 enrichment": -0.921}
{"Sequence": "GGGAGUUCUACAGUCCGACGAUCAGUCCUGUGCUACACAUCGUAUGUACCGAAUCGGUUUUUGGUUUUUGGUUUUUUUGGAAAGUAUUAUGUUACGCCGUUCGGAUCUGCACUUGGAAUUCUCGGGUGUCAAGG", "log2 enrichment": -2.18}
{"Sequence": "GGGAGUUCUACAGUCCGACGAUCACCAAACAGGUGGGCAUCUUUGGGAAGUGGGGCAAGGGGGGGAUAGGGAGGGGGGUAACACUUUGGGAACAGGUGGUCCCAGGUCGUUUCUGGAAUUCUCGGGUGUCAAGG", "log2 enrichment": 1.36}
{"data": "Study 2", "target": "Interferon regulatory factor 7, full length, phosphomimetic (IRF7, Homo sapiens, UniProt Q92985, residues 1-503, S471D/S472D/S475D/S476D/S477D/S483D/S484D/S487D)", "method": "protein-binding microarray", "molecule type": "double-stranded DNA, one strand shown", "matrix": "in vitro", "concentration": "2200 nM top", "notes": "60-bp whole probe", "added": "salmon DNA 0.4 mg/ml", "baseline": "random background probes", "direction": "higher = stronger binding", "all sequences stand within": "GCCTAGCAC … GTCTTGATTCGCTTGACGCTGCTG", "Construct (chain)": "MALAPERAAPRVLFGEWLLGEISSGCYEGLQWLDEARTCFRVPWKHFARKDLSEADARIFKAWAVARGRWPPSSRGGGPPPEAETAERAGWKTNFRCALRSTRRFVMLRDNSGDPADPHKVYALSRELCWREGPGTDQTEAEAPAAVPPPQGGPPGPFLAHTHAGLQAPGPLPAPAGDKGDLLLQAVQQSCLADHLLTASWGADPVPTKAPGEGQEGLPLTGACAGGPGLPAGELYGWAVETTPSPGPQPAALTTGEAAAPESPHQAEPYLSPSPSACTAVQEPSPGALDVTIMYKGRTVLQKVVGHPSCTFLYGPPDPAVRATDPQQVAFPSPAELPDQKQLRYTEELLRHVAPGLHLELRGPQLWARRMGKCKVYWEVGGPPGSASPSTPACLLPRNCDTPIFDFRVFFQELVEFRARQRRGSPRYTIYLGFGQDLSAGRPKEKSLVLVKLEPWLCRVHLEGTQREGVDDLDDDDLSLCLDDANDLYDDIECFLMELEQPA"}
{"Sequence": "TTAGGCATCGACTTTCGGTTAGTGCTA", "fitted relative affinity": "4.76 z-score"}
{"Sequence": "GACGATATGAGACTGGAGACGTGCTAG", "fitted relative affinity": "0.0128 z-score"}
{"Sequence": "ATAGATATCAGACTGGATTAGTGCTAG", "fitted relative affinity": "-0.0736 z-score"}
{"Sequence": "TTAGAACTCAGTATCGATTAGTGCTAG", "fitted relative affinity": "-0.142 z-score"}
{"Sequence": "TCAGATTTCCACTTTCTACTGTGCTAG", "fitted relative affinity": "3.34 z-score"}
{"data": "Study 3", "target": "Histone acetyltransferase KAT6A, both winged helices, GST fusion (KAT6A, Homo sapiens, UniProt Q92794, residues 1-181)", "method": "protein binding microarray", "molecule type": "double-stranded DNA, one strand shown", "matrix": "in vitro", "concentration": "not given", "notes": "8-mer, flanks averaged, mean of 2 arrays, mostly near background", "baseline": "not given", "direction": "higher = stronger binding", "Target sequence (chain)": "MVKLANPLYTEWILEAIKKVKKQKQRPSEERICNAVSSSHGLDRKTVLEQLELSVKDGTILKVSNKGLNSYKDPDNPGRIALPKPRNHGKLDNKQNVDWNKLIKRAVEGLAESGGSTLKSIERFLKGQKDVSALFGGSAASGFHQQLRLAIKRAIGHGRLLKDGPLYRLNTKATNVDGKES"}
{"Sequence": "CTATATGC", "E-score": -0.0606}
{"Sequence": "ATTTAGAA", "E-score": -0.191}
{"Sequence": "ATGGGAAT", "E-score": -0.114}
{"Sequence": "AACGCCCA", "E-score": -0.127}
{"Sequence": "ATGAGACA", "E-score": -0.162}
{"data": "Mixed results"}
{"Molecule": "PhoQ, residues 284 288 289 292 302 303 ALSMDL", "target": "PhoP, residues 12 14 15 18 19 SMASL (Escherichia coli, UniProt P23836)", "test": "Sort-seq, measured: YFP reporter", "system": "E. coli", "setting": "PhoQ-PhoP variant library, added: 10 µM Mg2+", "how to read": "baseline: high Mg2+ state, higher = stronger signaling", "measurement": "fold induction", "result": 5.78}
{"note": "Repeated from above (study 2):"}
{"Sequence": "TTAGGCATCGACTTTCGGTTAGTGCTA", "fitted relative affinity": "4.76 z-score"}
{"Sequence": "GACGATATGAGACTGGAGACGTGCTAG", "fitted relative affinity": "0.0128 z-score"}
